# Measured values of several laboratories.
# Compare with care: the assays were run in different laboratories. ± gives the spread as reported.
SMILES,target,assay,test system,conditions,quantity,value
CC1=C(/C=C/C(C)=C/C=C/C(C)=C/C=O)C(C)(C)CCC1,"thyroid hormone receptor, rat","reporter gene, agonist, luciferase reporter, qHTS",GH3.TRE-Luc,,EC50,< 10 µM
COC(=O)c1cc(NC(=O)[C@H](CCCCN)NC(=O)c2cc(NC(=O)[C@H](CCCCN)NC(=O)c3cc(NC(=O)[C@H](CCCCN)NC(=O)c4cc(NC(=O)[C@@H](N)CCCCN)ccc4OC)ccc3OC)ccc2OC)ccc1OC,antithrombin III-factor Xa,"fondaparinux reversal, amidolytic",,"pH 8.4, added: fondaparinux 0.02 µg/mL",EC50,11 µM
CCCCCCCCCCCCCCCC(=O)N[C@@H](CCCCN)C(=O)N[C@@H](CCCCN)C(=O)N[C@@H](CO)C(=O)N[C@@H](CCCNC(=N)N)C(=O)N[C@@H](C)C(=O)N[C@@H](CC(C)C)C(=O)N[C@@H](Cc1ccccc1)C(N)=O,baboon PAR1,ex vivo platelet aggregation,baboon,"intravenous infusion, 6 mg/kg, 6 h, infusion 45 min, added: SFLLRN",inhibition,90%
COc1cc(CCC(C)=O)ccc1O,mAb 5-3H1,"antibody binding, indirect competitive ELISA",,added: coating antigen 3-OVA,IC50,> 4 µg/mL
O=C(/C=C/c1ccccc1)c1ccccc1,"HDAC class I, II and IV (human)","enzyme activity, inhibitor, fluorometric",K562 cell extract,"1 h, 37 °C",IC50,> 1000 µM
CC[C@H](C)[C@H](NC(=O)[C@H](CCC(=O)O)NC(=O)[C@H](CO)NC(=O)[C@@H](NC(=O)[C@@H](N)CO)C(C)C)C(=O)N[C@@H](CCC(N)=O)C(=O)N[C@@H](CC(C)C)C(=O)N[C@@H](CCSC)C(=O)N[C@@H](Cc1c[nH]cn1)C(=O)N[C@@H](CC(N)=O)C(=O)N[C@@H](CC(C)C)C(=O)NCC(=O)N[C@@H](CCCCN)C(=O)N[C@@H](Cc1c[nH]cn1)C(=O)N[C@@H](CC(C)C)C(=O)N[C@@H](CC(N)=O)C(=O)N[C@@H](CO)C(=O)N[C@@H](CCSC)C(=O)N[C@@H](CCC(=O)O)C(=O)N[C@@H](CCCNC(=N)N)C(=O)N[C@H](C(=O)N[C@@H](CCC(=O)O)C(=O)N[C@@H](Cc1c[nH]c2ccccc12)C(=O)N[C@@H](CC(C)C)C(=O)N[C@@H](CCCNC(=N)N)C(=O)N[C@@H](CCCCN)C(=O)N[C@@H](CCCCN)C(=O)N[C@@H](CC(C)C)C(=O)N[C@@H](CCC(N)=O)C(=O)N[C@@H](CC(=O)O)C(=O)N[C@H](C(=O)N[C@@H](Cc1c[nH]cn1)C(=O)N[C@@H](CC(N)=O)C(=O)N[C@@H](Cc1ccccc1)C(=O)O)C(C)C)C(C)C,Gαs-GFP,"co-localization, confocal microscopy",HEK293,"30 min, after ligand washout",Pearson correlation coefficient,0.8 ± 0.019
CCCCC/C=C/C(=O)CCc1ccc(O)c(OC)c1,mouse mAb 1-F12,"antibody binding, indirect competitive ELISA",,added: coating antigen 1-OVA,IC50,0.975 µg/mL
COc1ccc(/C=C/C(=O)c2c(O)cc(OC)cc2OC)cc1,"HDAC class I, II and IV (human)","enzyme activity, inhibitor, fluorometric",K562 cell extract,"1 h, 37 °C",IC50,> 1000 µM
Cc1sc2ncn(CC(=O)N3CCCC3)c(=O)c2c1-c1cccc(Br)c1,"NMDA receptor, mouse","single-channel current, outside-out patch",cortical neurons,"concentration not given, added: Ca2+ 1.25 mM",amplitude 1 area,71%
CN(C)C1CCN(c2nc3oc4ccccc4c(=O)c3s2)CC1,IκBα (mouse),"IκBα phosphorylation, immunoblot",RAW264.7,"50, 10, 2 µM, 12 h, added: LPS 1 µg/mL",inhibition,inhibited
COc1cc2c(NC3CCN(C(C)C)CC3)cc(N3CCOCC3)nc2cc1OCCCN1CCCC1,panel of methyltransferases,enzyme activity,,1 µM,inhibition,< 20%
COc1cc(C(=O)c2[nH]c(N)nc2-c2cccs2)cc(OC)c1OC,tubulin goat,taxol-induced tubulin polymerization,,"150 µM, added: taxol 10 µM",inhibition,65 ± 18%

# A few entries again:
SMILES,target,assay,test system,conditions,quantity,value
CCCCCCCCCCCCCCCC(=O)N[C@@H](CCCCN)C(=O)N[C@@H](CCCCN)C(=O)N[C@@H](CO)C(=O)N[C@@H](CCCNC(=N)N)C(=O)N[C@@H](C)C(=O)N[C@@H](CC(C)C)C(=O)N[C@@H](Cc1ccccc1)C(N)=O,baboon PAR1,ex vivo platelet aggregation,baboon,"intravenous infusion, 6 mg/kg, 6 h, infusion 45 min, added: SFLLRN",inhibition,90%
